{"data": "Experimental data gathered from unrelated publications", "TDP1": "Tyrosyl-DNA phosphodiesterase 1 (TDP1, Homo sapiens, UniProt Q9NUW8)", "RAD51": "DNA repair protein RAD51 homolog 1 (RAD51, Homo sapiens, UniProt Q06609)", "MAPK8": "Mitogen-activated protein kinase 8 (MAPK8, Homo sapiens, UniProt P45983)", "MAOB": "Amine oxidase [flavin-containing] B (MAOB, Homo sapiens, UniProt P27338)", "DNA dC->dU-editing enzyme APOBEC-3B C-terminal domain": "DNA dC->dU-editing enzyme APOBEC-3B, C-terminal domain (Homo sapiens, UniProt Q9UH17)", "Blk": "Tyrosine-protein kinase Blk (Blk, Mus musculus, UniProt P16277)", "note": "Compare with care: the assays were run in different laboratories. ± gives the spread as reported.", "sequence of UniProt Q06609 (whole entry, looked up)": "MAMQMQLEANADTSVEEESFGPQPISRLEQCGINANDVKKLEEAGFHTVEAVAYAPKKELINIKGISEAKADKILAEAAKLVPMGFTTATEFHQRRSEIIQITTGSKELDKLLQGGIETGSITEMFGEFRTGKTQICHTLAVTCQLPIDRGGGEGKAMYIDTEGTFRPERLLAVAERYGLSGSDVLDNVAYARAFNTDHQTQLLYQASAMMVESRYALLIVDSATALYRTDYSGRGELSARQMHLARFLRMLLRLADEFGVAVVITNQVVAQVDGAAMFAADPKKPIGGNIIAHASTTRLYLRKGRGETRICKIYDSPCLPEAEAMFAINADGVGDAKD", "sequence of UniProt Q9UH17 (whole entry, looked up)": "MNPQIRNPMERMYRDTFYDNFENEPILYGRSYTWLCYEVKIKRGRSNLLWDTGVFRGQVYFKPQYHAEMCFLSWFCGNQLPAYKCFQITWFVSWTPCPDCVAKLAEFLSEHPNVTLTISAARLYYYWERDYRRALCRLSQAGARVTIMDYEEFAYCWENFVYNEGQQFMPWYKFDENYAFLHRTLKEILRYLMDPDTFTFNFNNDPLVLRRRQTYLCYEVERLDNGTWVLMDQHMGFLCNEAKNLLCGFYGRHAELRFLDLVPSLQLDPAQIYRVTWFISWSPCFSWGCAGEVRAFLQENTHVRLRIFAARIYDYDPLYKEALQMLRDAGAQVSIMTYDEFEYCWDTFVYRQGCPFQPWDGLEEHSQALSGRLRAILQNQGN", "sequence of UniProt P27338 (whole entry, looked up)": "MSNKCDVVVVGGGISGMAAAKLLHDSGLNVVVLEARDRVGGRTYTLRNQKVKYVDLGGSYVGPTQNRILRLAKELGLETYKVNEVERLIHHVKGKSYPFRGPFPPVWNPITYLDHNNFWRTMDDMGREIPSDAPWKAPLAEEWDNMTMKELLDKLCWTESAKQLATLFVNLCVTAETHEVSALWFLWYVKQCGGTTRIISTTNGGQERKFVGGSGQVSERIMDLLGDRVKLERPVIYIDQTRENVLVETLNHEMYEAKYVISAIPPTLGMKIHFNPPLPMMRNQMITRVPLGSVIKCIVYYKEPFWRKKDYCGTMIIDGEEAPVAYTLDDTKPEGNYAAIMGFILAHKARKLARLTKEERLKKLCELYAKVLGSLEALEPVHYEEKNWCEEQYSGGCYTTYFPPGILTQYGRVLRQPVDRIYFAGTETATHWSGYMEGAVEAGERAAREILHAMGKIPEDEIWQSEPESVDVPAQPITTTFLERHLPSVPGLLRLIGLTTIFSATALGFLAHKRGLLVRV", "sequence of UniProt P45983 (whole entry, looked up)": "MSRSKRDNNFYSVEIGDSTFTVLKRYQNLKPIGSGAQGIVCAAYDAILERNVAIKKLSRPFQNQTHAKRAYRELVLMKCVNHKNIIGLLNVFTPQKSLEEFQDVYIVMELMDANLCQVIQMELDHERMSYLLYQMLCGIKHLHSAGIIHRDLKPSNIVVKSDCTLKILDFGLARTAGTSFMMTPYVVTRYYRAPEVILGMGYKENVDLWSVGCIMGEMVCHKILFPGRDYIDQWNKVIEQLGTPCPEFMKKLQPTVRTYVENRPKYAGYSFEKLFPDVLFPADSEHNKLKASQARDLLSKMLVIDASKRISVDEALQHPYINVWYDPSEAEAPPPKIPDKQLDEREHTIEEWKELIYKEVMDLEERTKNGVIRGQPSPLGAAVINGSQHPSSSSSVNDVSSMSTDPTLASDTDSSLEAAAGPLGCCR", "sequence of UniProt Q9NUW8 (whole entry, looked up)": "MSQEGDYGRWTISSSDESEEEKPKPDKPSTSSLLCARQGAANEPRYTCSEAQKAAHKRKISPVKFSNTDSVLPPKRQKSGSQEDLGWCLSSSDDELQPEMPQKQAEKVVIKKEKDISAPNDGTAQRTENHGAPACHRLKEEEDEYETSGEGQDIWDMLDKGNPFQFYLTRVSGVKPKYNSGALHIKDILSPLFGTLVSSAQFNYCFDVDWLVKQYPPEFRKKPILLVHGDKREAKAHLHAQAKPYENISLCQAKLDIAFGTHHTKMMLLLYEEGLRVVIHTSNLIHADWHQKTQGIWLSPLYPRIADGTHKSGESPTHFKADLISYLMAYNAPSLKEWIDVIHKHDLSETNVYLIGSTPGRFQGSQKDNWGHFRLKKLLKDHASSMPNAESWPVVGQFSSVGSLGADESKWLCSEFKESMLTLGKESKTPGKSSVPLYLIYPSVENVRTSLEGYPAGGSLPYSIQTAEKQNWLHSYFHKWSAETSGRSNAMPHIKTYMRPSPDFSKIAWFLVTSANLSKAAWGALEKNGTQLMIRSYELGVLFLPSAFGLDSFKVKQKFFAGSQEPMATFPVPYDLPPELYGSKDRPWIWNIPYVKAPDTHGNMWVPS", "sequence of UniProt P16277 (whole entry, looked up)": "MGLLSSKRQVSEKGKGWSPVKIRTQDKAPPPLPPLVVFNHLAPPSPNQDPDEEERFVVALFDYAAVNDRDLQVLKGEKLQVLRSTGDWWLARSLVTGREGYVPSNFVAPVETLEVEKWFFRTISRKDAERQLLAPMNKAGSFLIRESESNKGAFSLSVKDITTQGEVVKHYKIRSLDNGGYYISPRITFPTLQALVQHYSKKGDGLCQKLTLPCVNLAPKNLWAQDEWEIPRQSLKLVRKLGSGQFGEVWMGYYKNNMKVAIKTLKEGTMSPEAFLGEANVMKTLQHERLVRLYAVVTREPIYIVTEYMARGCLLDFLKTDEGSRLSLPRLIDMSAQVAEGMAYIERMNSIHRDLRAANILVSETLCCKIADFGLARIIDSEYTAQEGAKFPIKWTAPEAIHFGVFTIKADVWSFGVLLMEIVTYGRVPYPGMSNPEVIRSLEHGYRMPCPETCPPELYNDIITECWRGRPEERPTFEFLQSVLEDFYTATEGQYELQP", "sequence of UniProt P08311 (whole entry, looked up)": "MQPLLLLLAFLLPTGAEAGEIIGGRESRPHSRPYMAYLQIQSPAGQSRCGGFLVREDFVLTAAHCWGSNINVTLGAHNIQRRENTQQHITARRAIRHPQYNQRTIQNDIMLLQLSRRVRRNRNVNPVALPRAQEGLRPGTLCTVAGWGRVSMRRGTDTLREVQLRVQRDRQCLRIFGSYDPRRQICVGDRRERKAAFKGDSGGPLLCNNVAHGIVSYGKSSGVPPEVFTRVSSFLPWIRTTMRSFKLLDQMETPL", "sequence of UniProt P14778 (whole entry, looked up)": "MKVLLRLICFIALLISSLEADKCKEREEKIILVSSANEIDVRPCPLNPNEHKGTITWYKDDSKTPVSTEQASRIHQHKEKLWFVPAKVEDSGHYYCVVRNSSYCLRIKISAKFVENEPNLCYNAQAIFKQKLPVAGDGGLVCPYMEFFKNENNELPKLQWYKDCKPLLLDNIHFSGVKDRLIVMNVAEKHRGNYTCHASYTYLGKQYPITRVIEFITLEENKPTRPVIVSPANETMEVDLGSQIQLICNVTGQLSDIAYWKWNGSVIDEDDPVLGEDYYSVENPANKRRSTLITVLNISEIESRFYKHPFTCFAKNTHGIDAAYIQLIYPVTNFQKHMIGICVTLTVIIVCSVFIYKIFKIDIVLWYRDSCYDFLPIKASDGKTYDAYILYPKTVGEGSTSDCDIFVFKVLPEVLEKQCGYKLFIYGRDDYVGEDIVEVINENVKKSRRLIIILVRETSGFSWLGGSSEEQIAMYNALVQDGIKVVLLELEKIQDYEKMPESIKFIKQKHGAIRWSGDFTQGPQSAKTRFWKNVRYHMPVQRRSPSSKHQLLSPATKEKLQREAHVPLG", "sequence of UniProt Q9HB29 (whole entry, looked up)": "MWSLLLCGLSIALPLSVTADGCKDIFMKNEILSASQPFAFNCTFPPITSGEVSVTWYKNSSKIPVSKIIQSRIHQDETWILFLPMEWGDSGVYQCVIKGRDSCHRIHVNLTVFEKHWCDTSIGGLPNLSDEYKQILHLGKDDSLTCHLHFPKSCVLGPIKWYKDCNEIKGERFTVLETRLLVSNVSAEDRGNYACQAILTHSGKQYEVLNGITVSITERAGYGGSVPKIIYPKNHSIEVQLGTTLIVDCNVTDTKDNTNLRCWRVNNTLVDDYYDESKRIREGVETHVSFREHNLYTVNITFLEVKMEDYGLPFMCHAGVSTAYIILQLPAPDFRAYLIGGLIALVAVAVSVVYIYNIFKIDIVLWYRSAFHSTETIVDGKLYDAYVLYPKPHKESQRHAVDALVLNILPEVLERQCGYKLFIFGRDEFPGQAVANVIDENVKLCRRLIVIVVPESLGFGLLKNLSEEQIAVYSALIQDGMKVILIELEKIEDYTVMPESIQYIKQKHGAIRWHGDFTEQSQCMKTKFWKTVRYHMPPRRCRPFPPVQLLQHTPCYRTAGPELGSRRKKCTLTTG", "sequence of UniProt Q9Z1M0 (whole entry, unmodified, looked up)": "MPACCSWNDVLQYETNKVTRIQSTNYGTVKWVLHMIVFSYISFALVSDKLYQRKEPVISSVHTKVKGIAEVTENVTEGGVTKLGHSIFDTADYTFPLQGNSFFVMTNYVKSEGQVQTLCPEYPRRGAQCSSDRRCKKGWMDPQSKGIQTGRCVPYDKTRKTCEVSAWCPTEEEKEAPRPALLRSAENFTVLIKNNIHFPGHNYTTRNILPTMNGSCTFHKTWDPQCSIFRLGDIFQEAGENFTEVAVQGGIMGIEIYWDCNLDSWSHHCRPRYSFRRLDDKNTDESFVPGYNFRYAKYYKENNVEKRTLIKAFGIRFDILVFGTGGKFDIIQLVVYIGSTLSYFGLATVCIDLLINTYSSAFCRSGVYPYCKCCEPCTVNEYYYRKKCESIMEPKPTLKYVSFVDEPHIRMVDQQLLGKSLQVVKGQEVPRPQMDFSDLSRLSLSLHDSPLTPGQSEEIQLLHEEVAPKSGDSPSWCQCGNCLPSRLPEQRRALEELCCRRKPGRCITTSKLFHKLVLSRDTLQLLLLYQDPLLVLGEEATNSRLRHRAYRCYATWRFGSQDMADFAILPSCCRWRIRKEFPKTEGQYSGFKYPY"}
{"target": "Interleukin-1 receptor type 1 (IL1R1, Homo sapiens, UniProt P14778)", "test": "IL-8 release, antagonist", "test system": "A-431", "conditions": "100 µM, 18 h, together with: IL-1β 5 ng/mL", "how to read": "baseline: untreated", "quantity": "remaining activity", "result": "88.2%", "SMILES": "CC(C)[C@@H]1NC(=O)[C@H](Cc2ccccc2)NC(=O)CSC[C@@H](C(N)=O)NC(=O)[C@H](CCC(=O)O)NC(=O)[C@H](CO)NC(=O)[C@H](Cc2c[nH]c3ccccc23)NC(=O)[C@H](C(C)C)NC(=O)[C@H](C(C)C)NC(=O)[C@H](Cc2ccc(O)cc2)NC(=O)[C@H](CC(=O)O)NC(=O)[C@H](Cc2c[nH]c3ccccc23)NC(=O)[C@H](Cc2ccc(O)cc2)NC(=O)[C@H](Cc2c[nH]c3ccccc23)NC(=O)[C@H](CCC(=O)O)NC1=O"}
{"target": "TDP1", "test": "enzyme activity, inhibitor", "conditions": "100 µM, unpurified compound", "quantity": "inhibition", "result": "49.6%", "SMILES": "C=Cc1cccc(C=NOCc2ccc(-c3nc4cc(-c5ccccc5)ccn4c3Nc3ccc(C(=O)O)cc3)cc2)c1 (mixture of isomers)"}
{"target": "Mitogen-activated protein kinase kinase kinase 21 (MAP3K21, Homo sapiens, UniProt Q5TCX8)", "test": "enzyme activity", "conditions": "1 µM", "how to read": "baseline: DMSO control", "quantity": "remaining activity", "result": "97.6%", "SMILES": "Nc1ncc(-c2cc(-c3cnn(CC(F)(F)F)c3)ncc2F)nc1C(=O)NC1CNCC(F)C1 (centres unmarked)"}
{"target": "RAD51", "test": "D-loop formation, inhibitor", "conditions": "10 x RAD52 pairing IC50, 4% DMSO, together with: 1 mM calcium chloride", "how to read": "baseline: DMSO control", "quantity": "remaining activity", "result": "93.7 ± 2.1%", "SMILES": "COc1ccc(-c2nc(C(=O)NCCCN3CCOCC3)cc3c2[nH]c2ccccc23)cc1OC"}
{"target": "MAPK8", "test": "kinase activity, inhibitor", "conditions": "0.06097 µM, unit not given, together with: 10 mM glutathione", "how to read": "baseline: no inhibitor", "quantity": "remaining activity", "result": 0.761, "SMILES": "COC(=O)[C@@]1(C(C)C)C=C(C(=O)Nc2cccc(C(=O)Nc3ccc(Nc4nccc(-c5cccnc5)n4)c(C)c3)c2)C(=O)CC1"}
{"target": "RAD51", "test": "D-loop formation, inhibitor", "conditions": "10 x RAD52 pairing IC50, 4% DMSO, together with: 1 mM calcium chloride", "how to read": "baseline: DMSO control", "quantity": "remaining activity", "result": "110.7 ± 0.2%", "SMILES": "CCCN(CCC)CCCNC(=S)Nc1ccc2nc(N3CCN(C)CC3)cc(C)c2c1"}
{"target": "MAPK8", "test": "kinase activity, inhibitor", "conditions": "0.006774 µM, unit not given, together with: 10 mM glutathione", "how to read": "baseline: no inhibitor", "quantity": "remaining activity", "result": 0.907, "SMILES": "C=C1C[C@@]2(C(=O)OC)C=C(C(=O)Nc3cccc(C(=O)Nc4ccc(Nc5nccc(-c6cccnc6)n5)c(C)c4)c3)C(=O)[C@@H]1C2"}
{"target": "Interleukin-1 receptor-like 2 (IL1RL2, Homo sapiens, UniProt Q9HB29)", "test": "reporter gene (SEAP), inhibitor, HEK-Blue IL-36R reporter", "test system": "HEK-Blue IL-36R cells", "conditions": "0.41 µM, 6 h, together with: IL-36β 0.01 ng/mL", "quantity": "remaining activity", "result": "13.2%", "SMILES": "CC(C)[C@@H]1NC(=O)[C@H](Cc2ccccc2)NC(=O)CSC[C@@H](C(N)=O)NC(=O)[C@H](CCC(=O)O)NC(=O)[C@H](CO)NC(=O)[C@H](Cc2c[nH]c3cccc(Cl)c23)NC(=O)[C@H](C2CCCCC2)NC(=O)[C@H](C(C)C)NC(=O)[C@H](Cc2ccc(O)cc2)NC(=O)[C@H](CC(=O)O)NC(=O)[C@H](Cc2c[nH]c3ccccc23)NC(=O)[C@H](Cc2ccc(N)nc2)NC(=O)[C@H](Cc2c[nH]c3ccc(Cl)cc23)NC(=O)[C@H](CCC(=O)O)NC1=O"}
{"target": "MAOB", "test": "enzyme activity, inhibitor", "conditions": "about 2 × IC50, 30 min preincubation, without dialysis", "quantity": "remaining activity", "result": "41.4%", "SMILES": "CC(C)c1ccc(/C=C/C(=O)c2ccc(F)cc2)cc1"}
{"target": "DNA dC->dU-editing enzyme APOBEC-3B C-terminal domain", "test": "deaminase activity, inhibitor", "conditions": "500 µM", "quantity": "remaining activity", "result": "19.8%", "SMILES": "O=C(c1cccc(-c2cc(NCCO)ncn2)c1)N1CCCC1c1ccccc1 (centres unmarked)"}
{"target": "TDP1", "test": "enzyme activity, inhibitor", "conditions": "100 µM, unpurified compound", "quantity": "inhibition", "result": "-6.2%", "SMILES": "O=C(O)c1ccc(Nc2c(-c3ccccc3)nc3ccc(CON=Cc4sccc4-n4cccc4)cn23)cc1 (mixture of isomers)"}
{"target": "Blk", "test": "enzyme activity", "conditions": "100 nM, mouse enzyme, together with: 10 µM ATP", "how to read": "baseline: untreated", "quantity": "remaining activity", "result": "113%", "SMILES": "O=C=[N][Ru-4]123([n]4c5ccc(O)cc5c5c6c(c7cc(F)c[n+]1c7c54)C(=O)NC6=O)[S+]1CC[S+]2CC[S+]3CC1 (centres unmarked)"}
{"target": "DNA dC->dU-editing enzyme APOBEC-3B C-terminal domain", "test": "deaminase activity, inhibitor", "conditions": "500 µM", "quantity": "remaining activity", "result": "18.1%", "SMILES": "COc1ccc(-c2ccc(C(=O)N(C)CCO)cc2)c(OC)c1"}
{"target": "P2X purinoceptor 7 (P2rx7, Mus musculus, UniProt Q9Z1M0, A312V)", "test": "ATP-evoked current, inhibitor, whole-cell patch clamp", "test system": "HEK293 transfected", "conditions": "0.1 µM", "quantity": "remaining activity", "result": "77.8%", "SMILES": "CCC1Sc2ccc(S(=O)(=O)CCC(=O)Nc3cccc4ccccc34)cc2NC1=O (centres unmarked)"}
{"target": "RAD51", "test": "D-loop formation, inhibitor", "conditions": "10 x RAD52 pairing IC50, 4% DMSO, together with: 1 mM calcium chloride", "how to read": "baseline: DMSO control", "quantity": "remaining activity", "result": "97.5 ± 2.5%", "SMILES": "Cc1c(C(=O)Nc2ccc(S(=O)(=O)N(C)C3CCN(C)CC3)cc2)oc2c(Cl)cccc12"}
{"target": "DNA dC->dU-editing enzyme APOBEC-3B C-terminal domain", "test": "deaminase activity, inhibitor", "conditions": "500 µM", "quantity": "remaining activity", "result": "15%", "SMILES": "NC(=O)c1ccc2nc(CN3CCCC3c3ccco3)cc(O)c2c1 (centres unmarked)"}
{"target": "MAOB", "test": "enzyme activity, inhibitor", "conditions": "about 2 × IC50, 30 min preincubation, after dialysis", "quantity": "remaining activity", "result": "78.7%", "SMILES": "CC(C)c1ccc(/C=C/C(=O)c2ccc(O)cc2)cc1"}
{"target": "DNA dC->dU-editing enzyme APOBEC-3B C-terminal domain", "test": "deaminase activity, inhibitor", "conditions": "500 µM", "quantity": "remaining activity", "result": "24.2%", "SMILES": "NC(=O)COc1cccc(-c2cccc(C(=O)N3CCC4(CCCC4)C3)c2)c1"}
{"target": "Mitogen-activated protein kinase 1 (MAPK1, Homo sapiens, UniProt P28482)", "test": "kinase activity, inhibitor", "conditions": "1.646 µM, unit not given", "how to read": "baseline: no inhibitor", "quantity": "remaining activity", "result": 0.955, "SMILES": "COC(=O)[C@@]1(C)C=C(C(=O)Nc2cccc(C(=O)Nc3ccc(Nc4nccc(-c5cccnc5)n4)c(C)c3)c2)C(=O)CC1"}
{"target": "DNA polymerase theta, helicase domain (POLQ, Homo sapiens, UniProt O75417)", "test": "ATPase activity, ADP-Glo", "conditions": "0.06 µM, together with: ATP 100 µM", "quantity": "remaining activity", "result": "43%", "SMILES": "COc1ccccc1-c1ccncc1C(=O)Nc1nnc(OCc2ccc(Cl)cc2)s1"}
{"target": "RAD51", "test": "D-loop formation, inhibitor", "conditions": "10 x RAD52 pairing IC50, 4% DMSO, together with: 1 mM calcium chloride", "how to read": "baseline: DMSO control", "quantity": "remaining activity", "result": "89.7 ± 0.4%", "SMILES": "COc1ccccc1Nc1nc(NCCCO)c2ccccc2n1"}
{"target": "Tyrosine-protein kinase JAK1 (JAK1, Homo sapiens, UniProt P23458)", "conditions": "concentration not given", "how to read": "baseline: untreated control", "quantity": "remaining activity", "result": "58%", "SMILES": "Cc1cnc2nc1Nc1cccc(c1)COC/C=C/COCc1cc(ccc1OCCN1CCOCC1)N2"}
{"target": "Cathepsin G (CTSG, Homo sapiens, UniProt P08311)", "test": "enzyme activity, inhibitor", "conditions": "10 µM", "quantity": "remaining activity", "result": "102%", "SMILES": "C[C@](C(=O)NC1CCOCC1)(c1cncnc1)N(C(=O)[C@H](F)Cl)c1ccc(OC(F)(F)Cl)cc1"}
{"target": "RAD51", "test": "D-loop formation, inhibitor", "conditions": "10 x RAD52 pairing IC50, 4% DMSO, together with: 1 mM calcium chloride", "how to read": "baseline: DMSO control", "quantity": "remaining activity", "result": "112 ± 4.2%", "SMILES": "Cc1cc(N2CCN(C)CC2)nc2ccc(NC(=S)NCCCN3CCN(C)CC3)cc12"}
{"target": "MAOB", "test": "enzyme activity, inhibitor", "conditions": "1 µM", "quantity": "remaining activity", "result": "53.4%", "SMILES": "COc1cc(C(=O)/C=C/c2ccc(C(C)C)cc2)cc(OC)c1OC"}
{"target": "Blk", "test": "kinase activity, KinaseProfiler", "conditions": "0.03 µM, species mouse", "how to read": "baseline: control", "quantity": "remaining activity", "result": "96%", "SMILES": "COc1ccc(NC(=O)Nc2ccc3c(c2)C(=O)N(C(C)CO)CC(C)C(CN(C)Cc2ccc4c(c2)OCO4)O3)cc1 (centres unmarked)"}
{"target": "MAOB", "test": "enzyme activity, inhibitor", "conditions": "1 µM", "quantity": "remaining activity", "result": "1.82%", "SMILES": "CC(C)c1ccc(/C=C/C(=O)c2ccc(Br)cc2)cc1"}
{"target": "RAD51", "test": "D-loop formation, inhibitor", "conditions": "10 x RAD52 pairing IC50, 4% DMSO, together with: 1 mM calcium chloride", "how to read": "baseline: DMSO control", "quantity": "remaining activity", "result": "108 ± 3.1%", "SMILES": "CCCCN(CC)CCCNC(=S)Nc1ccc2nc(N3CCN(C)CC3)cc(C)c2c1"}
{"target": "DNA dC->dU-editing enzyme APOBEC-3B C-terminal domain", "test": "deaminase activity, inhibitor", "conditions": "500 µM", "quantity": "remaining activity", "result": "1.1%", "SMILES": "CCC1(O)CCCN(C(=O)c2ccc(-c3ccc(F)c(C(N)=O)c3)cc2)C1 (centres unmarked)"}
{"note": "Repeated from above:"}
{"target": "Mitogen-activated protein kinase 1 (MAPK1, Homo sapiens, UniProt P28482)", "test": "kinase activity, inhibitor", "conditions": "1.646 µM, unit not given", "how to read": "baseline: no inhibitor", "quantity": "remaining activity", "result": 0.955, "SMILES": "COC(=O)[C@@]1(C)C=C(C(=O)Nc2cccc(C(=O)Nc3ccc(Nc4nccc(-c5cccnc5)n4)c(C)c3)c2)C(=O)CC1"}
{"target": "DNA polymerase theta, helicase domain (POLQ, Homo sapiens, UniProt O75417)", "test": "ATPase activity, ADP-Glo", "conditions": "0.06 µM, together with: ATP 100 µM", "quantity": "remaining activity", "result": "43%", "SMILES": "COc1ccccc1-c1ccncc1C(=O)Nc1nnc(OCc2ccc(Cl)cc2)s1"}
{"target": "RAD51", "test": "D-loop formation, inhibitor", "conditions": "10 x RAD52 pairing IC50, 4% DMSO, together with: 1 mM calcium chloride", "how to read": "baseline: DMSO control", "quantity": "remaining activity", "result": "89.7 ± 0.4%", "SMILES": "COc1ccccc1Nc1nc(NCCCO)c2ccccc2n1"}
